Measured values collected from several papers.
A part holds a random share of what one study measured. Changes are numbered by the printed parent chain.

Sample 1
Target: Ras GTPase-activating protein-binding protein 1, RRM domain (G3BP1, Homo sapiens, UniProt Q13283)
UniProt Q13283, sequence (whole entry, looked up): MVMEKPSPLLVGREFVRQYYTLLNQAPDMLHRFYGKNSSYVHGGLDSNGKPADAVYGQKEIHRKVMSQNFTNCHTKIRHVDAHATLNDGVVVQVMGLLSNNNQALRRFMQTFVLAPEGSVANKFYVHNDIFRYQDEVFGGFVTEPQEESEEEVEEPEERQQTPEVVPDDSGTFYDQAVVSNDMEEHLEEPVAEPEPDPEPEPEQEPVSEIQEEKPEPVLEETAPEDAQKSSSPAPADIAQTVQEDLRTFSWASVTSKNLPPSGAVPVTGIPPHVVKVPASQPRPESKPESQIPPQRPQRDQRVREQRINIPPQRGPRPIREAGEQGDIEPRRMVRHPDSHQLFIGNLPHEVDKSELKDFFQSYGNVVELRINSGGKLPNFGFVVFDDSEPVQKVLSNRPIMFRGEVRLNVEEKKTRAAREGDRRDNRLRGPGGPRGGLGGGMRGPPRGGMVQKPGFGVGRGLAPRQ
Technique: RNA Bind-n-Seq
Molecule type: RNA
Sample: in vitro
Concentration: 1 µM
Setting: whole 134-nt RNA, ends assumed
With: 150 mM KCl
Baseline: input library
Direction: higher = stronger binding
Shared flanks, not repeated: GGGAGUUCUACAGUCCGACGAUC … UGGAAUUCUCGGGUGUCAAGG
Oligonucleotide | log2 enrichment
UAACUUUAGAGGAGGAUCUGAUGGAUACGGCAGUGGACGUGGAUUUGGGGAUGGCUAUAAUGGGUAUGGAGGAGGACCUGGAGGUGGCAA | -0.728
UUGCAGGAGCCGCCGCGCCUCGGCCUAGCAUGUCGGAAGCGGGCGAGGAGCAGCCCAUGGAGACGACGGGCGCCACCGAGAACGGACAUG | -0.524
AGUCCUGUGCUACACAUCGUAUGUACCGAAUCGGGUGGGUUUUUGGGAAAAAAAGGGAAAGUAUUAUGUUACGCCGUUCGGAUCUGCACU | 0.571
UGGGAGGUAGAUUUUGUUUAUUUUUUUAGCUCAUUUCCAGGGGUGGGAAUUUUUUUUUAAUAUGUGUCAUGAAUAAAGUUGUUUUUGAAA | 1.73
CUCAAGUCCUGUGCUACACAUCGUAUGUACCGAAUCGGUGGUUUGGUUUUUGGAAAGUAUUAUGUUACGCCGUUCGGAUCUGCACUUCCA | -0.26
CCUGUGCUACACAUCGUAUGUACCGAAUCAAAUUUUUUUAAACCCCCAAAUUUUUUUAAAAAAGUAUUAUGUUACGCCGUUCGGAUCUGC | -0.959
UAACUUUAGAGGAGGAUCUGAUGGAUAUGGCAGUGGACGUGGAUUUGGGGAUGGCUAUAAUGGGUAUGGAGUAGGACCUGGAGGUGGCAA | -0.23
CCUGUGCUACACAUCGUAUGUACCGAAUCGGCCCCCCCGGCCCCCCCGGGCCCCCCCGGGGAAAGUAUUAUGUUACGCCGUUCGGAUCUG | -0.758
AAGACAUUUGUUGUAUUUAUGGUUGUAACUGUACAUGCUUAUCAGGAUGAGACUGAAAGAAGGUAGGGCAAAAAUGGUUGAAUCUAUUUU | -0.277
UCAAGUCCUGUGCUACACAUCGUAUGUACCGAAUCGGAGGUUUUUGGAAAAAGGAAAGUAUUAUGUUACGCCGUUCGGAUCUGCACUUCC | -0.247
UGGCCCUGGUGGCAUGCGGGGAGGAAGAGGUGGCCUCAUGGAUCGUGGUGGUCCCGGUGGAAUGUUCAGAGGUGGCCCUGGUGGAGACAG | 1.45
AAGUCCUGUGCUACACAUCGUAUGUACCGAAUCGGUUUUUUUGGUUUUUUUGGAGGAAAGUAUUAUGUUACGCCGUUCGGAUCUGCACUU | -0.356
AGUCCUGUGCUACACAUCGUAUGUACCGAAUCGGUUUUUUUGGAAAAAGGAAAAAGGAAAGUAUUAUGUUACGCCGUUCGGAUCUGCACU | -0.246
CCUCAAGUCCUGUGCUACACAUCGUAUGUACCGAAUCGGUUUGGUUUGGUGGAAAGUAUUAUGUUACGCCGUUCGGAUCUGCACUUCCAG | -0.313

Sample 2
Substance: PhoQ, residues 284 288 289 292 302 303 SNSSNI
Technique: Sort-seq
Measured: YFP reporter
Sample: E. coli
Setting: PhoQ-PhoP variant library
With: 10 µM Mg2+
Baseline: high Mg2+ state
Direction: higher = stronger signaling
target | fold induction
PhoP, residues 12 14 15 18 19 VHTVL (Escherichia coli, UniProt P23836) | 7.41
PhoP, residues 12 14 15 18 19 ICWRQ (Escherichia coli, UniProt P23836) | 3.09
PhoP, residues 12 14 15 18 19 TQCLL (Escherichia coli, UniProt P23836) | 6.26

Sample 3
Target: CCND3, cyclin fold, Cln2 fusion (human)
Technique: yeast growth competition, sequencing
Sample: yeast
Setting: weak parent motif
Baseline: not given
Direction: higher = stronger binding
Parent: CENPC docking peptide (human); VKTKKRLNFDDKV
Substitution | normalised enrichment score
K5R | 0.88
K5A L7A | 0.126
V13A | 0.0404
V1A | 0.163
T3A | 0.134
F9A | 0.108
K5R F9L | 0.179
D11A | 0.158
D10A | 0.0475
N8A | 0.25

Sample 4
Target: Sal-like protein 4, full length isoform A (SALL4, Homo sapiens, UniProt Q9UJQ4, residues 1-1053)
UniProt Q9UJQ4, sequence (whole entry, looked up): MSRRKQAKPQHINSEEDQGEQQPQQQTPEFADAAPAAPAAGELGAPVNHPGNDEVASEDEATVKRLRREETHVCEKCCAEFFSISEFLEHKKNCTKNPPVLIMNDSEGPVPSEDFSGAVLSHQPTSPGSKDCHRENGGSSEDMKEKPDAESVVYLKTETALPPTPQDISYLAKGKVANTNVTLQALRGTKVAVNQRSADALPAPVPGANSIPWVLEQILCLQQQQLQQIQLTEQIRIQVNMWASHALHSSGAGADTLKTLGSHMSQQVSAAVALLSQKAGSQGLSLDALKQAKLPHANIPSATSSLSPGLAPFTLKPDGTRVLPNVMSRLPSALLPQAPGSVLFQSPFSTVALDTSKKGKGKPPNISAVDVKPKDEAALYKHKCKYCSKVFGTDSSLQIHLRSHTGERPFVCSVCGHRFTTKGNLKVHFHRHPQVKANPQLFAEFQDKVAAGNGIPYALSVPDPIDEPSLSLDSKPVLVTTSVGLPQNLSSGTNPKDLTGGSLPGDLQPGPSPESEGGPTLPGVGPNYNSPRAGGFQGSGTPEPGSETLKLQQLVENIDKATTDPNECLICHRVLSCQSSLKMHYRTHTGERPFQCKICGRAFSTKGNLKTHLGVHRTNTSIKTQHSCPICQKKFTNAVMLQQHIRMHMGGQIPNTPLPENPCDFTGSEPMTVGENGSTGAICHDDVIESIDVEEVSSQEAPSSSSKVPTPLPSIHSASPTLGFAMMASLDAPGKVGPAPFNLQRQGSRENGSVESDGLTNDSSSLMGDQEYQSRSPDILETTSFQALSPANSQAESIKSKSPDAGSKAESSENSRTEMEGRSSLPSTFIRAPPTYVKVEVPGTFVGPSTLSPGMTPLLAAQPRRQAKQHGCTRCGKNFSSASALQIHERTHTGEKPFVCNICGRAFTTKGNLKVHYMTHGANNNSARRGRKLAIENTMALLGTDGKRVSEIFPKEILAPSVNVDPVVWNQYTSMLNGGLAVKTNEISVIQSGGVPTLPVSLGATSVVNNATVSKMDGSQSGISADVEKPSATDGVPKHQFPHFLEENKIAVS
Technique: universal PBM
Molecule type: double-stranded DNA, one strand shown
Sample: in vitro
Concentration: 600 nM
Setting: 8-mer, flanks averaged, mean of replicates
Direction: higher = stronger binding
Oligonucleotide | E-score
AACTTCAT | 0.192
GAACGCCC | -0.195
AACAAGAT | 0.157
GTATTTTA | 0.341
GCGAAACA | -0.0556
AAACGTCC | -0.0404
AGAGGCCA | -0.184
CAGCCCGA | -0.348
GGTACTAA | -0.0317
TATCCTAA | 0.203
GCCTCGCC | -0.392
ACAGGGGG | -0.262
AGCGCAAG | -0.144
CCCGACTC | -0.25
AGTCTAGC | -0.106
ACGAAGAT | 0.134
GGGAGCCA | -0.308

Sample 5
Target: ABI1, truncated, D143A, DHFR fusion (Arabidopsis thaliana)
Technique: DHFR PCA, deep sequencing
Sample: yeast
Setting: methotrexate growth selection, single substitutions
With: (+)-ABA 710 µM
Baseline: wild-type fitted maximum
Direction: higher = stronger binding
Parent: PYL1, truncated, DHFR fusion (Arabidopsis thaliana); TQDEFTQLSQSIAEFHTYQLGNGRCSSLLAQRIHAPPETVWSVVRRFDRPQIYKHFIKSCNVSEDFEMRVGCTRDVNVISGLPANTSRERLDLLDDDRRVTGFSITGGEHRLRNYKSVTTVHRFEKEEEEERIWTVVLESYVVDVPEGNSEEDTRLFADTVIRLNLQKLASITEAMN; partner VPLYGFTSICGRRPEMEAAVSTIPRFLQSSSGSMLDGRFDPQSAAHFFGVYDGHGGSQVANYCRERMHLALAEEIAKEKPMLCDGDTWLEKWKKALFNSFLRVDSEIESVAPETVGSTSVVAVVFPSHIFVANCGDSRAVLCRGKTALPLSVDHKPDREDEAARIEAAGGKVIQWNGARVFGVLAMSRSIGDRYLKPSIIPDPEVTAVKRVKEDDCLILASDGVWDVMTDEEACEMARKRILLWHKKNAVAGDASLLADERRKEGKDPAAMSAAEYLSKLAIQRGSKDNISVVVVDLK
Substitution | relative binding score [%]
V40A | 73.7
F47S | -2.75
W41H | 0.722
C25G | 67.9
S59T | 99
D153C | 78.4
V136Y | 97.1
D159P | -0.224
R113K | 110
L82Y | 40.9
I172N | 78.3
V43N | 77
P146T | 76.8
I33R | -7.98

Sample 6
Target: RNA binding protein fox-1 homolog 2, RRM domain, GST-SBP tag (RBFOX2, Homo sapiens, UniProt O43251-10, residues 100-194)
Technique: RNA Bind-n-Seq
Molecule type: RNA
Sample: in vitro
Concentration: 365 nM
Setting: natural RNA segment, single round, ends assumed
Baseline: no-protein control
Direction: higher = stronger binding
Shared flanks, not repeated: GGGAGUUCUACAGUCCGACGAUC … UGGAAUUCUCGGGUGCCAA
Construct (chain): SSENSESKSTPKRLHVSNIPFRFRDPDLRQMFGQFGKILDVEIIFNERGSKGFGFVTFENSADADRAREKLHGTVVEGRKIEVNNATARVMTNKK
Oligonucleotide | RBNS enrichment (R)
CUACCAACUGAGCUACAUCCCCAGCCUUCAGUCCCCACCCCCGAGUCCAGAGACAGGUCUCAUGUGACACUGGACAACCCUGCCAUCACUAGCAUGUGAACCUGGUCCUA | 0.769
UUGUGUCUUCAUUUUAAUGUGUUUGCAAUCGCUCCGCUCCAGGAAGAACGGAAAUGCUGUCUUGUGAGCAUGAAGUGAACGGGCUGUUUUGCUCCAGCCACUUUUCUUGU | 0.513
AUGUUAUUUUCUAAAAUUGUCAUUCCUUUGCAACAUAUGAGCAUUAAUAUCUUUUCUCUUUUAACAUUGAAGAAAUGGGAAAUUUCAUUAAUGACAUUGUUGUUGAUAAA | 0.449
UCAGAGGACUUUAUUUUCCUCUCUACCUACUCUUUUGGGUGUCACUGUCUCCAGACAGCAGGGCCCUUUGUCUCUGAGAAAUUAGCCAUCCAGAAUAGAAUCUGUAACAA | 0.206
GCUUUGCCACCACCACCAAGCACAUCUGUGAUCCUGAAGGGCGGCCGUUAGUCAUUACUGCUGAGUCCUGGGUCACCAGCAGACACACUGGGCAUGGACCCCUCAAAGCA | 4.93
GAAGGCACAGCCAGCGUUGUGGCCUGAGGGAGGCCCUGCUGGGACCCUGAUCUGGGCCUUCCUGUCCCAGGGCCUAUGGGCAACUGCGUUGAAAGGACGUUCGCCAAGGG | 0.497
AAACUAUACUUGUAUUAAAUGUGCUUUUUAAAUAAAAGCUCGUAACACAACUAAUUAAGGACUUGCAGCCUGGAGUGUUUGAGAGAUGUUUGUCUCAGGUGUGUGGGUAG | 0.591
CUCCAGGAGAGAGCGCUCCAGGUACUCUACCGACUGAGACAGGUCCCAAGCCCUAACAGGCCUUCACUCUCUUGAUAGUCUUUCCUUUACAGUCAAGGACUACGUUAAAG | 0.245
GAUACUGGACUUUCUGACGCAGAUGAACAAUUAAGGGGAAAAGCUUCCCUUUUCCCUCUGUGGCAGUUACGAUUUUGACUUCAGUCCUGAGAAAAACUUCAGGUUUUGAA | 0.324
UAAGUUGCAUGCACUGCGGGACUUGCAGUCAGCUGGCUGCCAUUAUUCAUAGCCGCUUGGUAUGCAGUAACUUGGGGUGGAGGUAAAACACUAACAAAGGGGGCUUUUCU | 2.57
UGGAGGUAUGAUAGGUUUAUCACACAGCCUAAGGCAGAUUUUGUUUUGUCUGUACUGACUCUAUCUGCCACACAGAAUGUAUGUAUGUAAUAUUCAGUAAUAAAUGUCAU | 1.44
GCCCUUUUAGAGUCUCUGUGUGAACCCAACUCUACUGAACUUAAACACCUUCCAAACAGUGGCAGGGGCCACAGUGGCAGACAGGGUAGAGUACCCCAGGCAGUUUCUCA | 0.435

Repeated from above (sample 1):
Oligonucleotide | log2 enrichment
AGUCCUGUGCUACACAUCGUAUGUACCGAAUCGGGUGGGUUUUUGGGAAAAAAAGGGAAAGUAUUAUGUUACGCCGUUCGGAUCUGCACU | 0.571
UAACUUUAGAGGAGGAUCUGAUGGAUAUGGCAGUGGACGUGGAUUUGGGGAUGGCUAUAAUGGGUAUGGAGUAGGACCUGGAGGUGGCAA | -0.23
CCUCAAGUCCUGUGCUACACAUCGUAUGUACCGAAUCGGUUUGGUUUGGUGGAAAGUAUUAUGUUACGCCGUUCGGAUCUGCACUUCCAG | -0.313
UCAAGUCCUGUGCUACACAUCGUAUGUACCGAAUCGGAGGUUUUUGGAAAAAGGAAAGUAUUAUGUUACGCCGUUCGGAUCUGCACUUCC | -0.247
UGGCCCUGGUGGCAUGCGGGGAGGAAGAGGUGGCCUCAUGGAUCGUGGUGGUCCCGGUGGAAUGUUCAGAGGUGGCCCUGGUGGAGACAG | 1.45
UAACUUUAGAGGAGGAUCUGAUGGAUACGGCAGUGGACGUGGAUUUGGGGAUGGCUAUAAUGGGUAUGGAGGAGGACCUGGAGGUGGCAA | -0.728
CCUGUGCUACACAUCGUAUGUACCGAAUCGGCCCCCCCGGCCCCCCCGGGCCCCCCCGGGGAAAGUAUUAUGUUACGCCGUUCGGAUCUG | -0.758
UGGGAGGUAGAUUUUGUUUAUUUUUUUAGCUCAUUUCCAGGGGUGGGAAUUUUUUUUUAAUAUGUGUCAUGAAUAAAGUUGUUUUUGAAA | 1.73
AAGACAUUUGUUGUAUUUAUGGUUGUAACUGUACAUGCUUAUCAGGAUGAGACUGAAAGAAGGUAGGGCAAAAAUGGUUGAAUCUAUUUU | -0.277
CCUGUGCUACACAUCGUAUGUACCGAAUCAAAUUUUUUUAAACCCCCAAAUUUUUUUAAAAAAGUAUUAUGUUACGCCGUUCGGAUCUGC | -0.959
CUCAAGUCCUGUGCUACACAUCGUAUGUACCGAAUCGGUGGUUUGGUUUUUGGAAAGUAUUAUGUUACGCCGUUCGGAUCUGCACUUCCA | -0.26
